Measured values collected from several papers.
Lines come from different studies, so protocols differ. ± gives the spread as reported.
Cell line: MDA-MB-468

SMILES = CCCCCCCCC=CCCCCCCCCn1c(-c2cccnc2)nc(-c2ccc(C)cc2)c1-c1ccc(C)cc1; test = cell growth or viability, SRB; conditions = 24 h; measurement = IC50; result = > 100 µM
SMILES = CCC(=C(c1ccc(Cl)cc1)c1ccc(OCCCN(C)C)cc1)c1ccc(OC)cc1; test = cell growth or viability, SRB; measurement = GI50; result = 1.06 µM
SMILES = C[C@H](NC(=O)[C@H](CCC(N)=O)NC(=O)[C@H](Cc1c[nH]c2ccccc12)NC(=O)[C@@H](N)CCCNC(=N)N)C(=O)N[C@@H](CCCNC(=N)N)C(=O)N[C@@H](Cc1c[nH]c2ccccc12)C(=O)N[C@@H](CCC(N)=O)C(=O)N[C@@H](Cc1c[nH]c2ccccc12)C(=O)N[C@@H](CCCNC(=N)N)C(N)=O; test = MTT; conditions = concentration not given, 2 h, 37 °C, 5% FBS; how to read = reference: untreated cells; measurement = viability; result = 59 ± 9%
SMILES = CCCCCCCCCCCCn1c(-c2cccnc2)nc(-c2ccc(C)cc2)c1-c1ccc(C)cc1; test = cell growth or viability, SRB; conditions = 24 h; measurement = IC50; result = > 100 µM
SMILES = COc1ccc2c(c1)CCn1c[n+]3c(c1-2)-c1ccc(OC)cc1CC3; test = Western blot, refers to: PERK, ATF6, IRE1α; conditions = concentration not given, 24 h; measurement = protein level; result = increased
SMILES = Cc1ccc(-c2nc(-c3cccnc3)[nH]c2-c2ccc(C)cc2)cc1; test = cell growth or viability, SRB; conditions = 48 h; measurement = IC50; result = 50 µM
SMILES = C[C@H](N)C(=O)N[C@@H](Cc1c[nH]c2ccccc12)C(=O)N[C@@H](CCC(N)=O)C(=O)N[C@@H](Cc1c[nH]c2ccccc12)C(=O)N[C@@H](CCCNC(=N)N)C(=O)N[C@@H](Cc1c[nH]c2ccccc12)C(=O)N[C@@H](CCC(N)=O)C(=O)N[C@@H](Cc1c[nH]c2ccccc12)C(=O)N[C@@H](CCCNC(=N)N)C(N)=O; test = MTT; conditions = concentration not given, 24 h, 37 °C, 5% FBS; how to read = reference: untreated cells; measurement = viability; result = 48 ± 5%
SMILES = CC(Cc1ccc(Cl)cc1)=C(c1ccc(Cl)cc1)c1ccc(OCCN(C)C)cc1; test = cell growth or viability, SRB; measurement = GI50; result = 2.97 µM
SMILES = Cc1c(C)c(C)[c-](C)c1C.[C-]#[O+].[C-]#[O+].[C-]#[O+].[Cl-].[Cl-].[Cl-].[Ir+3].[Re+].c1cnc(-c2ncccn2)nc1; test = DCFDA flow cytometry; conditions = 25 µM; measurement = ROS-positive cells; result = 49.7%
SMILES = CC(=O)N[C@@H](Cc1ccc(O)cc1)CN(CC(=O)N[C@@H](CCCCN)CN(CC(=O)N[C@@H](Cc1ccccc1)CN(CC(=O)N[C@H]1CCCCNc2c(F)c(F)c(c(F)c2F)S(=O)(=O)c2c(F)c(F)c(c(F)c2F)NCCCC[C@@H](CN(CC(=O)N[C@@H](C)CN(CC(N)=O)S(C)(=O)=O)S(C)(=O)=O)NC(=O)CN(S(=O)(=O)CC(C)C)C[C@H](CC(C)C)NC(=O)CN(S(=O)(=O)CCN)C1)S(=O)(=O)CC(C)C)S(=O)(=O)CCN)S(C)(=O)=O; test = cell growth or viability, CCK-8; conditions = 72 h; measurement = GI50; result = 5.63 µM
SMILES = CC(C)Cn1cc(-c2ccnc(Nc3ccc(N4CCN(CCCCCCC(=O)NO)CC4)cc3)n2)nn1; test = cell growth or viability, SRB; conditions = 72 h; measurement = IC50; result = 1.61 µM
SMILES = N=C(N)NCCC[C@H](NC(=O)[C@H](Cc1c[nH]c2ccccc12)NC(=O)[C@H](CCC(N)=O)NC(=O)[C@H](Cc1c[nH]c2ccccc12)NC(=O)[C@H](CCCNC(=N)N)NC(=O)[C@H](Cc1c[nH]c2ccccc12)NC(=O)[C@H](CCC(N)=O)NC(=O)[C@H](Cc1c[nH]c2ccccc12)NC(=O)[C@@H](N)CCCNC(=N)N)C(N)=O; test = MTT; conditions = concentration not given, 24 h, 37 °C, 5% FBS; how to read = reference: untreated cells; measurement = viability; result = 27 ± 4%
SMILES = Cc1cc(C)nc(NC(=S)N2CCN(c3ccc(C(F)(F)F)cn3)CC2)c1; conditions = concentration not given, together with: U-13C-glutamine; measurement = M+5 α-ketoglutarate production; result = decreased
SMILES = CC(=O)OC[C@H]1O[C@@H](Sc2sc(C(=O)c3ccc(C)cc3)c(N)c2-c2nc3ccccc3s2)[C@H](OC(C)=O)[C@@H](OC(C)=O)[C@H]1OC(C)=O; test = SRB; conditions = 10 µM, 48 h; how to read = reference: untreated; measurement = growth; result = 78.1%
SMILES = CCCn1c(-c2cccnc2)nc(-c2ccc(C)cc2)c1-c1ccc(C)cc1; test = cell growth or viability, SRB; conditions = 48 h; measurement = IC50; result = 100 µM
SMILES = Cc1cc(C)nc(NC(=S)N2CCN(Cc3ccc(C(F)(F)F)cc3)CC2)c1; conditions = 10 µM, together with: U-13C-serine; measurement = M+1 serine fraction; result = increased
SMILES = Nc1ccccc1NC(=O)c1ccc(Nc2nccc(-c3cn(C4CCCC4)nn3)n2)cc1; test = cell growth or viability, SRB; conditions = 72 h; measurement = IC50; result = 2.09 µM
SMILES = C[C@H](NC(=O)[C@H](Cc1c[nH]c2ccccc12)NC(=O)[C@@H](N)CCCNC(=N)N)C(=O)N[C@@H](Cc1c[nH]c2ccccc12)C(=O)N[C@@H](CCCNC(=N)N)C(=O)N[C@@H](Cc1c[nH]c2ccccc12)C(=O)N[C@@H](CCC(N)=O)C(=O)N[C@@H](Cc1c[nH]c2ccccc12)C(=O)N[C@@H](CCCNC(=N)N)C(N)=O; test = MTT; conditions = concentration not given, 2 h, 37 °C, 5% FBS; how to read = reference: untreated cells; measurement = viability; result = 45 ± 7%
SMILES = CCCCCCCCCCCCCCCCn1c(-c2cccnc2)nc(-c2ccc(C)cc2)c1-c1ccc(C)cc1; test = cell growth or viability, SRB; conditions = 24 h; measurement = IC50; result = > 100 µM
SMILES = CC(=O)N[C@@H](Cc1ccc(O)cc1)CN(CC(=O)N[C@@H](CCCCN)CN(CC(=O)N[C@@H](Cc1ccccc1)CN(CC(=O)N[C@H]1CCCCNc2c(F)c(F)c(c(F)c2F)S(=O)(=O)c2c(F)c(F)c(c(F)c2F)NCCCC[C@@H](CN(CC(=O)N[C@@H](C)CN(CC(N)=O)S(C)(=O)=O)S(C)(=O)=O)NC(=O)CN(S(=O)(=O)CC(C)C)C[C@H](Cc2ccccc2)NC(=O)CN(S(=O)(=O)CCN)C1)S(=O)(=O)CC(C)C)S(=O)(=O)CCN)S(C)(=O)=O; test = cell growth or viability, CCK-8; conditions = 72 h; measurement = GI50; result = 4.95 µM
SMILES = CC(=O)OC[C@H]1O[C@@H](Sc2sc(C(=O)c3ccc(Br)cc3)c(N)c2-c2nc3ccccc3s2)[C@H](OC(C)=O)[C@@H](OC(C)=O)[C@@H]1OC(C)=O; test = SRB; conditions = 10 µM, 48 h; how to read = reference: untreated; measurement = growth; result = 112%
SMILES = c1ccc(-c2nc(-c3cccnc3)[nH]c2-c2ccccc2)cc1; test = cell growth or viability, SRB; conditions = 48 h; measurement = IC50; result = 62.7 µM

A few entries again:
SMILES = Nc1ccccc1NC(=O)c1ccc(Nc2nccc(-c3cn(C4CCCC4)nn3)n2)cc1; test = cell growth or viability, SRB; conditions = 72 h; measurement = IC50; result = 2.09 µM
SMILES = C[C@H](NC(=O)[C@H](Cc1c[nH]c2ccccc12)NC(=O)[C@@H](N)CCCNC(=N)N)C(=O)N[C@@H](Cc1c[nH]c2ccccc12)C(=O)N[C@@H](CCCNC(=N)N)C(=O)N[C@@H](Cc1c[nH]c2ccccc12)C(=O)N[C@@H](CCC(N)=O)C(=O)N[C@@H](Cc1c[nH]c2ccccc12)C(=O)N[C@@H](CCCNC(=N)N)C(N)=O; test = MTT; conditions = concentration not given, 2 h, 37 °C, 5% FBS; how to read = reference: untreated cells; measurement = viability; result = 45 ± 7%
SMILES = CCCCCCCCCCCCCCCCn1c(-c2cccnc2)nc(-c2ccc(C)cc2)c1-c1ccc(C)cc1; test = cell growth or viability, SRB; conditions = 24 h; measurement = IC50; result = > 100 µM
